Published values pooled from the literature.
A part holds a random share of what one study measured.
Sequence of UniProt P29376 (whole entry, looked up): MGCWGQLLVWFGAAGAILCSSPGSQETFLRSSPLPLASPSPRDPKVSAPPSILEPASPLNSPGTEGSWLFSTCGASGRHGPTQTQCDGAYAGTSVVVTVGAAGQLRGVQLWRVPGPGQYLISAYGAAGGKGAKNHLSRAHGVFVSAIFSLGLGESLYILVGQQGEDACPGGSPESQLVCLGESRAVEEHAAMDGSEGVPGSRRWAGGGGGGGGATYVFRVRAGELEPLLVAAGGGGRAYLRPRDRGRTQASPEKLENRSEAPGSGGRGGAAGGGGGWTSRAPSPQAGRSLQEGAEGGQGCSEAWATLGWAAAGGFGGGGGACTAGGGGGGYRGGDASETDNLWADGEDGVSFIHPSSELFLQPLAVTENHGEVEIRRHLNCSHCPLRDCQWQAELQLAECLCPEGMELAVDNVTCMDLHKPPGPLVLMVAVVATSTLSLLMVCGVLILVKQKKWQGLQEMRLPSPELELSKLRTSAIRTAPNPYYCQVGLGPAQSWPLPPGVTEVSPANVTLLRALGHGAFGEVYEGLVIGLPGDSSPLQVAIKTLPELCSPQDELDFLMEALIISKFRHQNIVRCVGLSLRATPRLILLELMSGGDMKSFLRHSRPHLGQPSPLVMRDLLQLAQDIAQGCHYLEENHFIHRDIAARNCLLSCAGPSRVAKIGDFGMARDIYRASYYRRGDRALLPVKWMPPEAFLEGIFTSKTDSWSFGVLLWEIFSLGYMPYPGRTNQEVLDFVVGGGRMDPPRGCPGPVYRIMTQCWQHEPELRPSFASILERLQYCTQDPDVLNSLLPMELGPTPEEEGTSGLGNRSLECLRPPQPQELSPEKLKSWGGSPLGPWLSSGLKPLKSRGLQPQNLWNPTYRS
Sequence of UniProt O95382 (whole entry, looked up): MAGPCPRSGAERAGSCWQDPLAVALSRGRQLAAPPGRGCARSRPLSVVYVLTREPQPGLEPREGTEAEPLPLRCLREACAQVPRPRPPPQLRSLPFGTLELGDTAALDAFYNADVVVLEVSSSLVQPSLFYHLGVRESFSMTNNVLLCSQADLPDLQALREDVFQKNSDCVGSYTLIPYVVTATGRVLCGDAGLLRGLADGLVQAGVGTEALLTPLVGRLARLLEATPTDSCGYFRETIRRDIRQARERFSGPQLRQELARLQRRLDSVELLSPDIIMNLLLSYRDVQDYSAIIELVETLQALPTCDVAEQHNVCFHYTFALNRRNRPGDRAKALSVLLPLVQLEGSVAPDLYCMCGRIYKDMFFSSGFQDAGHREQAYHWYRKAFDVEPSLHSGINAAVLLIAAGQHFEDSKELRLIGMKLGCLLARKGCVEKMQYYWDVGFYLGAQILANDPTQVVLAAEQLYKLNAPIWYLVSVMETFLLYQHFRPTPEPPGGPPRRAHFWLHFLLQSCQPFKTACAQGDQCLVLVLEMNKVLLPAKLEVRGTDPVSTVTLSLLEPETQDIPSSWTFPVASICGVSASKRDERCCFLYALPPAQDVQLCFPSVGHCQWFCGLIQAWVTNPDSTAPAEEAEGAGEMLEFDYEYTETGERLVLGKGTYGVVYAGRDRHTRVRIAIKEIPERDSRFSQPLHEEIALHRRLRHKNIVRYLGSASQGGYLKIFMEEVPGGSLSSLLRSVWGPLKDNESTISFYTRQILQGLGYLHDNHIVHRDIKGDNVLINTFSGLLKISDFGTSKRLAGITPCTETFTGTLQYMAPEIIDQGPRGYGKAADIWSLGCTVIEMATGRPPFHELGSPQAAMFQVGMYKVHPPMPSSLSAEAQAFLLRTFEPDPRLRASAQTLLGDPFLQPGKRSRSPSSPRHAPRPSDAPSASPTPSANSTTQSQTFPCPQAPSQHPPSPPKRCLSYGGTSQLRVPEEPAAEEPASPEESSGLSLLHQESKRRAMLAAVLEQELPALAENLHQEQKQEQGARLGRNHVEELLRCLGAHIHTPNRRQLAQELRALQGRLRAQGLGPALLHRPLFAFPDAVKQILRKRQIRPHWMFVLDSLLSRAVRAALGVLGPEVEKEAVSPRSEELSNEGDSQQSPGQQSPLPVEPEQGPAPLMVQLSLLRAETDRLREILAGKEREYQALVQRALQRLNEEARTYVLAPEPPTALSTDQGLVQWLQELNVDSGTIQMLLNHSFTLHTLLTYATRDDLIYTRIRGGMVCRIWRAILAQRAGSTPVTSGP
Sequence of UniProt P78356 (whole entry, looked up): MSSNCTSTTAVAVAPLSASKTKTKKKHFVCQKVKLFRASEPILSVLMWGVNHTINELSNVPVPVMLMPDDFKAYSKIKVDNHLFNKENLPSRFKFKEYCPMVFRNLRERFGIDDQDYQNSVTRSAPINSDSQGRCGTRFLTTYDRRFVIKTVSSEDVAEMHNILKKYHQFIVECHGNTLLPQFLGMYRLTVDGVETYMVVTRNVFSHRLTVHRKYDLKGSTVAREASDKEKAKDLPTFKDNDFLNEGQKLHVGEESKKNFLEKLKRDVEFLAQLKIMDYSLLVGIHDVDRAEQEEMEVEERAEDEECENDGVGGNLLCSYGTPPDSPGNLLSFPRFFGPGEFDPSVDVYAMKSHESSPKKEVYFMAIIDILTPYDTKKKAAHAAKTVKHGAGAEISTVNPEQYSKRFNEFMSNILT
Sequence of UniProt P36896 (whole entry, looked up): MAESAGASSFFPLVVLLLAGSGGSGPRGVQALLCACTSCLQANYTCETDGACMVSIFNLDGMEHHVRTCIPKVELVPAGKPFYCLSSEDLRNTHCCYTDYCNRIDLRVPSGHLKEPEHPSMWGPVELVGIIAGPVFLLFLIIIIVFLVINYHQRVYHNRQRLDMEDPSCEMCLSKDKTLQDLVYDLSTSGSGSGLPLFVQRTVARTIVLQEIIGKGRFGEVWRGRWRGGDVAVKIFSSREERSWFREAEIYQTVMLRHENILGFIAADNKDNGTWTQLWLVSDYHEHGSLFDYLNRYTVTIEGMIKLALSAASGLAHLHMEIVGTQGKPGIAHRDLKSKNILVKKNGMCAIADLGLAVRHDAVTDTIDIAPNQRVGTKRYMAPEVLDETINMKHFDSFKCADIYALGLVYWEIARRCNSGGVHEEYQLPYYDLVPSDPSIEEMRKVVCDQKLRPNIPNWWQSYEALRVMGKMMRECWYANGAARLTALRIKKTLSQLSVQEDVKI
Sequence of UniProt Q96L34 (whole entry, looked up): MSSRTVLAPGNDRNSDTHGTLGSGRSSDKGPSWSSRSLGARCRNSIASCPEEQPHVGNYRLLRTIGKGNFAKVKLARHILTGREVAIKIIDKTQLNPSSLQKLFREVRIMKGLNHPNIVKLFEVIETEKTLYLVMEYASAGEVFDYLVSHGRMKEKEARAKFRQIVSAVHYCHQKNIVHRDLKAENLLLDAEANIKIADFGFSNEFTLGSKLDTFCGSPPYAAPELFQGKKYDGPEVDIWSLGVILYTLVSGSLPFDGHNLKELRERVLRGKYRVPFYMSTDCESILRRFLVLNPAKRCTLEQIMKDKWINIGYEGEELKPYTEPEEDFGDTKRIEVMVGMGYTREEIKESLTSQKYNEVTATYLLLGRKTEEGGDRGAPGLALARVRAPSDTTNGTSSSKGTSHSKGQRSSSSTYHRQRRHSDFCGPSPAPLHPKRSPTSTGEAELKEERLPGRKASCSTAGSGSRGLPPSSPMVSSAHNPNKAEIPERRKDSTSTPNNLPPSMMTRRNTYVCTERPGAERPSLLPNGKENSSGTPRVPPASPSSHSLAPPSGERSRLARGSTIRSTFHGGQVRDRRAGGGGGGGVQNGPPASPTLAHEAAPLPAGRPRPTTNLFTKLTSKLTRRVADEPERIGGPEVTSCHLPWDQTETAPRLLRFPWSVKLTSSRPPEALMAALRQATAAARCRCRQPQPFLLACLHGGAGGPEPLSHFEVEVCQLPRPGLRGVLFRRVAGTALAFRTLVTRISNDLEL

Series 1
SMILES: O=C(Nc1ccccc1)Nc1cccc(Oc2ccc3nccn3n2)c1
Technique: competitive binding panel
Concentration: 1 µM
Reference: vehicle
target	test	remaining binding [%]
Activin receptor type-1B (ACVR1B, Homo sapiens, UniProt P36896)		100
Serine/threonine-protein kinase 4 (STK4, Homo sapiens, UniProt Q13043)	measured: MST1	100
Insulin receptor-related protein (INSRR, Homo sapiens, UniProt P14616)		100
Tyrosine-protein kinase receptor Tie-1 (TIE1, Homo sapiens, UniProt P35590)		100
Leukocyte tyrosine kinase receptor (LTK, Homo sapiens, UniProt P29376)		100
Protein-tyrosine kinase 2-beta (PTK2B, Homo sapiens, UniProt Q14289)	measured: PYK2	40
Atypical kinase COQ8A, mitochondrial (COQ8A, Homo sapiens, UniProt Q8NI60)	measured: ADCK3	95
Mitogen-activated protein kinase kinase kinase 6 (MAP3K6, Homo sapiens, UniProt O95382)	measured: ASK2	100
MAP/microtubule affinity-regulating kinase 4 (MARK4, Homo sapiens, UniProt Q96L34)		91
G protein-coupled receptor kinase 3 (GRK3, Homo sapiens, UniProt P35626)		100
Serine/threonine-protein kinase 16 (STK16, Homo sapiens, UniProt O75716)		100
Serine/threonine-protein kinase pim-3 (PIM3, Homo sapiens, UniProt Q86V86)		100
Ephrin type-A receptor 3 (EPHA3, Homo sapiens, UniProt P29320)		66
Rho-associated protein kinase 2 (ROCK2, Homo sapiens, UniProt O75116)		100
Interleukin-1 receptor-associated kinase 3 (IRAK3, Homo sapiens, UniProt Q9Y616)		99
Serine/threonine-protein kinase WNK4 (WNK4, Homo sapiens, UniProt Q96J92)		83

Series 2
Target: Eukaryotic initiation factor 4A-I (EIF4A1, Homo sapiens, UniProt P60842)
Sequence of UniProt P60842 (whole entry, looked up): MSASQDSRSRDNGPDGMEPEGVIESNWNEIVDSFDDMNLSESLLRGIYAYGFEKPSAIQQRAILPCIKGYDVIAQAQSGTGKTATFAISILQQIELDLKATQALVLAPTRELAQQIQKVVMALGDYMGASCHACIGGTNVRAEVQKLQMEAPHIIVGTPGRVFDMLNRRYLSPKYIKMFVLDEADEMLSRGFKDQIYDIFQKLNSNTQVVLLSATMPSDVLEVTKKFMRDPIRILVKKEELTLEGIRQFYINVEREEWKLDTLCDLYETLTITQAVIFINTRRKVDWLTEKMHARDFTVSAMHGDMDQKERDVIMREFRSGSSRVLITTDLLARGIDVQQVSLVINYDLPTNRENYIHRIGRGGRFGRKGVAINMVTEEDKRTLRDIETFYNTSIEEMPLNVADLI
Effect on: RNA clamping
Technique: fluorescence polarization
Concentration: concentration not given
Added: FAM-labelled poly r(AG)8 RNA
Reading: higher = more clamping
Structure (SMILES)	fluorescence polarization change [mP]
COc1ccc([C@@]23Oc4cc(OC)cc(OC)c4[C@]2(O)[C@H](O)[C@H](C(=O)c2cc(C)c(C)o2)[C@H]3c2ccccc2)cc1	11.5
C#CCN[C@@]12C(=O)[C@H](C(=O)OC)[C@@H](c3ccccc3)[C@]1(c1ccc(OC)cc1)Oc1cc(OC)cc(OC)c12	2.2
C=CCn1c(-c2ccccc2)nc2c(c1=O)[C@@H](c1ccccc1)[C@]1(c3ccc(OC)cc3)Oc3cc(OC)cc(OC)c3[C@]21O	22.4
C#CCNC(=O)COc1cc(OC)c2c(c1)O[C@@]1(c3ccc(OC)cc3)[C@H](c3ccccc3)c3c(nc(-c4ccccc4)[nH]c3=O)[C@@]21O	-2.8
COc1ccc([C@@]23Oc4cc(OC)cc(OC)c4[C@@]24NC(C)=N[C@@]4(O)[C@H](C(C)=O)[C@H]3c2ccccc2)cc1	61.4
COC(=O)[C@H]1[C@@H](O)[C@@]2(O)c3c(OC)cc(OCc4ccccc4)cc3O[C@@]2(c2ccc(OC)cc2)[C@@H]1c1ccccc1	17.2
COc1ccc([C@@]23Oc4cc(OC)cc(OC)c4[C@]2(O)C=C(C(=O)c2ccco2)[C@H]3c2ccccc2)cc1	23.9
COC(=O)[C@H]1C(=O)[C@@]2(NCc3nccn3C)c3c(OC)cc(OC)cc3O[C@@]2(c2ccc(OC)cc2)[C@@H]1c1ccccc1	-8.4

Series 3
Target: Interleukin-1 receptor-associated kinase 1 (IRAK1, Homo sapiens, UniProt P51617)
Sequence of UniProt P51617 (whole entry, looked up): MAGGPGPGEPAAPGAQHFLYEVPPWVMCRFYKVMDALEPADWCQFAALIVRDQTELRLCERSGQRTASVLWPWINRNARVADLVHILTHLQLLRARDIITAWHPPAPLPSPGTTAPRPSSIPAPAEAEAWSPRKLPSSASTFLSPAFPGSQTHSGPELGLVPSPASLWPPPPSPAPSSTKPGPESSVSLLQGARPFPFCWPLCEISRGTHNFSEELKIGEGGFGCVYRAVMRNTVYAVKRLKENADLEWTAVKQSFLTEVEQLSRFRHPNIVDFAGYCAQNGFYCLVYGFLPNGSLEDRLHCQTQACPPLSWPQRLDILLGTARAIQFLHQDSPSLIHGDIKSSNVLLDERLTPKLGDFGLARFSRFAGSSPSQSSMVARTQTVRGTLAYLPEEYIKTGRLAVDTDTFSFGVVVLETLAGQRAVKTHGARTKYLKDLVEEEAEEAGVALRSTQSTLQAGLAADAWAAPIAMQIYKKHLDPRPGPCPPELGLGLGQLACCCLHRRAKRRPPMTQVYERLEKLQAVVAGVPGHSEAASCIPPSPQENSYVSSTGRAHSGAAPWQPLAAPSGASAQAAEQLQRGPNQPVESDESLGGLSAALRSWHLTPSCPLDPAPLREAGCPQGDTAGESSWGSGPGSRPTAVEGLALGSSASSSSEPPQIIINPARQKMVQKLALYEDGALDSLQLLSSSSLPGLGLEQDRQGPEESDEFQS
Effect on: enzyme activity
Action: inhibitor
Concentration: 0.5 µM
Reference: control
Compound	remaining activity
C[C@@H]1CCN(C(=O)CC#N)C[C@@H]1N(C)c1ncnc2[nH]ccc12	93.9%
COc1cc2ncnc(Nc3cccc(Cl)c3)c2cc1OC	86.6%
Ic1cccc(CSc2nnc(-c3ccncc3)o2)c1	121%
CCN(CC)C(=O)c1ccc(Nc2nc(OCC3CCCCC3)c3[nH]cnc3n2)cc1	93.8%
c1ccc(-c2[nH]ncc2-c2ccnc3ccccc23)nc1	124%
Cc1cn(-c2cc(NC(=O)c3ccc(C)c(Nc4nccc(-c5cccnc5)n4)c3)cc(C(F)(F)F)c2)cn1	93.3%
O=C(NC(NC(=S)Nc1ccc(F)c([N+](=O)[O-])c1)C(Cl)(Cl)Cl)C(c1ccccc1)c1ccccc1 (centres unmarked)	107%
CCOc1nc(NC(=O)Cc2cc(OC)ccc2OC)cc(N)c1C#N	100%
Cn1nc2c3c(cccc31)C(=O)c1ccccc1-2	99.6%
COc1cc2ncnc(Nc3ccc(O)c(Br)c3)c2cc1OC	75.5%
CCN(CC)CCNC(=O)c1c(C)[nH]c(/C=C2\C(=O)Nc3ccc(Cl)cc32)c1C	14.1%
O=C(Nc1cccc(Nc2nccc(Nc3cccc(C(F)(F)F)c3)n2)c1)C1CC1	96.4%
Cc1nc2cc3nc(-c4cccs4)cnc3cc2n1C	113%

Series 4
SMILES: CC1=C(C#N)[C@@H](c2ccc3[nH]nc(C)c3c2)C(C#N)=C(c2ccc(Cl)cc2)N1
Concentration: 1 µM
target	test	remaining binding
Vascular endothelial growth factor receptor 2 (KDR, Homo sapiens, UniProt P35968)	cell-free assay, competition with immobilised ligand	96.3%
Myosin-IIIa (MYO3A, Homo sapiens, UniProt Q8NEV4)	binding, competition with immobilised ligand	100%
Platelet-derived growth factor receptor beta (PDGFRB, Homo sapiens, UniProt P09619)	cell-free assay, competition with immobilised ligand	100%
Discoidin domain-containing receptor 2 (DDR2, Homo sapiens, UniProt Q16832)	cell-free assay, competition with immobilised ligand	99.4%
Calcium/calmodulin-dependent protein kinase type II subunit beta (CAMK2B, Homo sapiens, UniProt Q13554)	cell-free assay, competition with immobilised ligand	100%
Epidermal growth factor receptor (EGFR, Homo sapiens, UniProt P00533, del747-752/P753S)	cell-free assay, competition with immobilised ligand	79.5%
MAP kinase-activated protein kinase 5 (MAPKAPK5, Homo sapiens, UniProt Q8IW41)	cell-free assay, competition with immobilised ligand	100%
Phosphatidylinositol 5-phosphate 4-kinase type-2 beta (PIP4K2B, Homo sapiens, UniProt P78356)	cell-free assay, competition with immobilised ligand	69.3%
Dual specificity protein kinase CLK2 (CLK2, Homo sapiens, UniProt P49760)	cell-free assay, competition with immobilised ligand	100%
Tyrosine-protein kinase ABL1, phosphorylated (ABL1, Homo sapiens, UniProt P00519, Y253F)	cell-free assay, competition with immobilised ligand	100%
Receptor-type tyrosine-protein kinase FLT3 (FLT3, Homo sapiens, UniProt P36888, D835V)	cell-free assay, competition with immobilised ligand	89.7%
Tyrosine-protein kinase ABL1, phosphorylated (ABL1, Homo sapiens, UniProt P00519)	cell-free assay, competition with immobilised ligand	82.9%
Leukocyte tyrosine kinase receptor (LTK, Homo sapiens, UniProt P29376)	cell-free assay, competition with immobilised ligand	100%
Tyrosine-protein kinase ABL2 (ABL2, Homo sapiens, UniProt P42684)	cell-free assay, competition with immobilised ligand	100%
Receptor-type tyrosine-protein kinase FLT3 (FLT3, Homo sapiens, UniProt P36888)	cell-free assay, competition with immobilised ligand	100%
Cyclin-dependent kinase 11A (CDK11A, Homo sapiens, UniProt Q9UQ88)	binding, competition with immobilised ligand	90%
Serine/threonine-protein kinase SIK1 (SIK1, Homo sapiens, UniProt P57059)	competition binding	100%
cAMP-dependent protein kinase catalytic subunit PRKX (PRKX, Homo sapiens, UniProt P51817)	cell-free assay, competition with immobilised ligand	100%
Receptor-type tyrosine-protein kinase FLT3 (FLT3, Homo sapiens, UniProt P36888, D835Y)	cell-free assay, competition with immobilised ligand	93.5%
